# Results from different studies.
# Each numbered part is a random draw from the data of one study; scales do not carry over between parts. Positions count from the first letter of the parent shown.

# Set 1
# Target: Histone acetyltransferase KAT6A, both winged helices, GST fusion (KAT6A, Homo sapiens, UniProt Q92794, residues 1-181)
# Method: protein binding microarray
# Molecule type: double-stranded DNA, one strand shown
# Matrix: in vitro
# Tested at: not given
# Setting: 8-mer, flanks averaged, mean of 2 arrays, mostly near background
# Reference: not given
# Direction: higher = stronger binding
# Residues (chain): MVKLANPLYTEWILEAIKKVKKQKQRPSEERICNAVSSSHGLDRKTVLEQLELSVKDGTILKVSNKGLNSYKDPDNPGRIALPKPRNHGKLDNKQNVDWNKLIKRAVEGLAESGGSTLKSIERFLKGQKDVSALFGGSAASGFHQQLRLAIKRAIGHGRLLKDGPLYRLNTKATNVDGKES
Sequence,E-score
CCGTCACG,0.285
CTGCCGGC,0.295
AGGGACAC,-0.115
GGCAACAA,-0.115
ACCGTTAT,0.0853
AGGGGTAG,-0.281
AAGCGTTG,0.0789
CCCGCTTC,0.104
CTATTTAC,-0.117
AACAGCTA,-0.111
TAGCTCGA,-0.0658
AGCTTTTC,-0.12

# Set 2
# Target: RING finger protein unkempt homolog, zinc fingers 1-6, GST-SBP tag (UNK, Homo sapiens, UniProt Q9C0B0, residues 30-357)
# Chain of UniProt Q9C0B0 (30-357, looked up): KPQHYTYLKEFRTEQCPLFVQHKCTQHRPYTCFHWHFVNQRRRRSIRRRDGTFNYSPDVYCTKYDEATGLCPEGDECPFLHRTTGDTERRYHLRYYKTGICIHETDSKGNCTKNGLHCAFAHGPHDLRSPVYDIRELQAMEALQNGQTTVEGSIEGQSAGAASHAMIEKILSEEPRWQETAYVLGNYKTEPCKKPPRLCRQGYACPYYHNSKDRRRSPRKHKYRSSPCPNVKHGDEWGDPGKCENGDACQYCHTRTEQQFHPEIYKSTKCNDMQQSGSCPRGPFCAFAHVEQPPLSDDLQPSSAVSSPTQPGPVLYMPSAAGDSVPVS
# Method: RNA Bind-n-Seq
# Molecule type: RNA
# Matrix: in vitro
# Tested at: not given
# Setting: RNA with constant flanks, ends assumed
# Reference: input RNA pool
# Direction: higher = stronger binding
Sequence,bound/input enrichment [ratio]
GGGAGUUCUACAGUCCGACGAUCGACUUUUGUGUAAAGUAAUGCAUGCAAUCUUGUAAUGUGGCCUGAAAACAAGCUAACUGUAUCCGAAACUAUUCAAAAACUAGGUAUUUUUAGUGACCUGUAGGCAGUGGCAAAUACAGACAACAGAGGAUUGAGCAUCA,1.44
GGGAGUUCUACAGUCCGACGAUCCUCCUGCUGCUGCUGCUCUGCAUCCAGCUCGGGGGAGGACAGAAGAAAAAGGAGAAUCUUUCCGCUGAAAAAGUAGAGCAGCUGAUGGAAUGGAGUUCCAGACGCUCAAUCUUCCGAAUGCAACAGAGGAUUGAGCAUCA,0.158
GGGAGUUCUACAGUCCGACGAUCACCACUGGUGGAAUUGAUGAUAUGUGUCUGAAGUAUUUUGUGGAGGCUGGUGCUAUGGCAGUCCGAAGAGUUUUAAAAAGGGACCUUAAACGCAUUGCCAAAGCUUCUGGAGCAACUAUUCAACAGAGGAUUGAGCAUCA,0.218
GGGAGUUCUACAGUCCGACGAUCGAAGCAGAUAAGUGGAGCACGUUGAGCGCCGAUAUUGAGGAGACAUUUAAGACUCAGGACACCGCUGUGAUUUCUGCCAAGCUAACAGGUAUGCAGAACAGCUUAAUGAUGCUUGUUGAUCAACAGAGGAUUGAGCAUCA,0.0865
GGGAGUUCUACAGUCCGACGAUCUUAUUUUCUAAAAAUUGUUACAUGCAAAUUUAAACCAAGAUUUAUCAGUAAAAGAAAAAAACCGAAUCCUUAAUAAUGUAAAUGUUGUUAUAUAUGCUACCCUGGUGAAAAUAUUUUUAUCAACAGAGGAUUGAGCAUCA,0.897
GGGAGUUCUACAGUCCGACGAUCAGUCAUGAACCGGAGUUUGACUAUUUGAAAAGUCUAGAAAUUGAGGAAAAAAUUAAUAAAAUCCGGUGGUUACCACAACAGAAUGCUGCUCAUUUUCUACUGUCUACAAAUGAUAAAACUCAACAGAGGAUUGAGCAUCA,1.08
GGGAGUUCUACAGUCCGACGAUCAAAGUGGACUAUGGCGAGUACAUGGAUAAAAACAAUGUGAGGCGGCAAGCAACAACAAUCACCGCUGAUAACAUUAUAUUUCUGAGUGACCAGACAAAAGAAAAGGCAUAGAACGGAUGACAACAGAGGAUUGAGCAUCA,0.392
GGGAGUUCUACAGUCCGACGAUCCUAAUCGUGUCAGCAGAAGCACUUACUAUGAAAUCAUUUUUUUAAAGAAAUCUGCACAGCCGAUUUUUACAUUGAGCUGAGAUGAAUAUGCCUUGAAAAUAAUAUAAGUGUGAAAUUGUUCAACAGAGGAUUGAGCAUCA,0.105

# Set 3
# Target: CCNE1, cyclin fold, Cln2 fusion (human)
# Method: yeast growth competition, sequencing
# Matrix: yeast
# Setting: strong parent motif
# Reference: not given
# Direction: higher = stronger binding
# Starting sequence: TICRR docking peptide (human); TKVRRNLFNQELL
Substitution,normalised enrichment score
TKVRRNLFNQALL [E11A],1.44
TKVRRNLLNQELL [F8L],0.758
TKVRRNLFNQELA [L13A],2.17
TAVRRNLFNQELL [K2A],2.26
TKVRRNLFNAELL [Q10A],1.29
TKVRRNLFAQELL [N9A],1.93
TKVRANLFNQELL [R5A],1.61

# Single results of other studies
Substance,target,assay,system,setting,scale,endpoint,result
"PhoQ, residues 284 288 289 292 302 303 TAVSDG","PhoP, residues 12 14 15 18 19 NQGLL (Escherichia coli, UniProt P23836)","Sort-seq, item: YFP reporter",E. coli,"PhoQ-PhoP variant library, together with: 10 µM Mg2+","reference: high Mg2+ state, higher = stronger signaling",fold induction,2.82

# Some of these lines once more (set 2):
Sequence,bound/input enrichment [ratio]
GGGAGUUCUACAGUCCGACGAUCGACUUUUGUGUAAAGUAAUGCAUGCAAUCUUGUAAUGUGGCCUGAAAACAAGCUAACUGUAUCCGAAACUAUUCAAAAACUAGGUAUUUUUAGUGACCUGUAGGCAGUGGCAAAUACAGACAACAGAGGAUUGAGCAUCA,1.44
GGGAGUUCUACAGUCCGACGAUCCUCCUGCUGCUGCUGCUCUGCAUCCAGCUCGGGGGAGGACAGAAGAAAAAGGAGAAUCUUUCCGCUGAAAAAGUAGAGCAGCUGAUGGAAUGGAGUUCCAGACGCUCAAUCUUCCGAAUGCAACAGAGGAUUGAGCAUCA,0.158
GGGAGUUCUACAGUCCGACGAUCACCACUGGUGGAAUUGAUGAUAUGUGUCUGAAGUAUUUUGUGGAGGCUGGUGCUAUGGCAGUCCGAAGAGUUUUAAAAAGGGACCUUAAACGCAUUGCCAAAGCUUCUGGAGCAACUAUUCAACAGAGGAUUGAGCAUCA,0.218
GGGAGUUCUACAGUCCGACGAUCGAAGCAGAUAAGUGGAGCACGUUGAGCGCCGAUAUUGAGGAGACAUUUAAGACUCAGGACACCGCUGUGAUUUCUGCCAAGCUAACAGGUAUGCAGAACAGCUUAAUGAUGCUUGUUGAUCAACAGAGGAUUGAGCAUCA,0.0865
